Measured values of several laboratories.
Each numbered part is a random draw from the data of one study; scales do not carry over between parts.

Sample 1
Target: Centromere-binding protein 1, full length, His-tagged (CBF1, Saccharomyces cerevisiae, UniProt P17106, residues 1-351)
Sequence of UniProt P17106 (whole entry, looked up): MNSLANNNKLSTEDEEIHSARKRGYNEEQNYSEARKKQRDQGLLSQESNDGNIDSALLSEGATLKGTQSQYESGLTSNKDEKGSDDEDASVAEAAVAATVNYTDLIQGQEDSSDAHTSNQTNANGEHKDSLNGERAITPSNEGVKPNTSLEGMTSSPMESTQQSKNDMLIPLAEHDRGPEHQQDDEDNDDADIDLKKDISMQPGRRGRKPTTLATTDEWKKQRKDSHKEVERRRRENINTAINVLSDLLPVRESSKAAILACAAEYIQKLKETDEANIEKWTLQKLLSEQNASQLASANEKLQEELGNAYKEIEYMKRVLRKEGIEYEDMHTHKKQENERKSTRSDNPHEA
Method: competition protein-binding microarray
Molecule type: double-stranded DNA, one strand shown
Matrix: in vitro
Concentration: 2 µM
Setting: whole 60-bp probe, lowest competitor level
Added: Pho4 competitor, 0.05 µM
Direction: higher = stronger binding
Quantity: fluorescence intensity
All sequences stand within: … GTCTTGATTCGCTTGACGCTGCTG
Sequence = GCTGGTGTCTCGTCGCACATGCTATTGTGTGTCATC; result = 104 a.u.
Sequence = TCGGTGGGTAAGCGTCACAATTTCGTCCACCAGTAC; result = 68.1 a.u.
Sequence = CCATGCTGTTTCCATCACGTGCAAATAACCTTTTTG; result = 5510 a.u.
Sequence = TGCGCAACAACTTGGTGGGTGGGTGTATGTCTAGAA; result = 65.3 a.u.
Sequence = ACCATCTTGACTAACAACGTGTACAACTCTTTTGAA; result = 111 a.u.
Sequence = TGCGCAACAACTTTTCACGTGCAATTATGTCTAGAA; result = 1540 a.u.
Sequence = CAAGATATAACTCATCACATGTTAAAGAACCCACAA; result = 985 a.u.
Sequence = TGGAGCTGTTGCGACCTTATTAGAACACCAACACTT; result = 67.9 a.u.
Sequence = CTATTCAGGTTTCTGGGCGTGGGACAGTTGGTAACA; result = 65.9 a.u.
Sequence = TAAATAATGGTTTTTCACGTGCATCGAGTCCGTACT; result = 917 a.u.
Sequence = CCAGTGCTGCCCCGCCACATGCAATCGGGCCGTCGG; result = 66 a.u.
Sequence = CACTTATCTGTTGAAAAGGTGTGCCTATAGCAACTA; result = 73.4 a.u.
Sequence = CTTTCCCGATCTTGCACTGTGGGTGTAGCACATTTG; result = 74.7 a.u.
Sequence = TGCGCAACAACTTGTAGGGTGGGTGTATGTCTAGAA; result = 70.6 a.u.
Sequence = TCTCGTCTTGCTCTTCTTTTAAGAAATATTTGCCGC; result = 86.1 a.u.
Sequence = TCGCTCTTTTCACTGCTCGTGCCGATGCAACGCTCC; result = 80 a.u.
Sequence = GGTGCGAAGTATCACCACGTTTCTTTTTCATCTCTT; result = 139 a.u.
Sequence = CCGATAACTCTTTGGAACGTGTTTCGAAGGAGTTGG; result = 94.9 a.u.

Sample 2
Target: Histone acetyltransferase KAT6A, both winged helices, GST fusion (KAT6A, Homo sapiens, UniProt Q92794, residues 1-181)
Method: protein binding microarray
Molecule type: double-stranded DNA, one strand shown
Matrix: in vitro
Concentration: not given
Setting: 8-mer, flanks averaged, mean of 2 arrays, mostly near background
Relative to: not given
Direction: higher = stronger binding
Quantity: E-score
Construct (chain): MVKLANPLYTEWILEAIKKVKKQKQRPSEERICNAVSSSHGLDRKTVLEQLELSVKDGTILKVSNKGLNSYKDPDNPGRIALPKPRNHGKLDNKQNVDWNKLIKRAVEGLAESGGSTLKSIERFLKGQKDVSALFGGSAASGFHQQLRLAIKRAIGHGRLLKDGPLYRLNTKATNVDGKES
Sequence = AGAAGATC; result = -0.0159
Sequence = CCAGGAAA; result = -0.27
Sequence = AGCTGGGC; result = -0.0727
Sequence = ACTCACAC; result = -0.107
Sequence = CGCCAAGC; result = 0.148
Sequence = TGCGGAAA; result = 0.198
Sequence = AATTAACC; result = 0.127
Sequence = CGAGAATA; result = -0.0238
Sequence = ATCCTAAG; result = -0.227
Sequence = ATGCCTAC; result = -0.19
Sequence = AAGTACTG; result = -0.121
Sequence = CCTGTAAC; result = -0.0531
Sequence = CTTAGAGA; result = -0.217
Sequence = GAGCTGCA; result = -0.0494
Sequence = GCCGTCCC; result = 0.223
Sequence = CGCCTACA; result = 0.149
Sequence = AAGACCCC; result = -0.0386

Sample 3
Target: RNA binding protein fox-1 homolog 2, RRM domain, GST-SBP tag (RBFOX2, Homo sapiens, UniProt O43251-10, residues 100-194)
Method: RNA Bind-n-Seq
Molecule type: RNA
Matrix: in vitro
Concentration: 365 nM
Setting: natural RNA segment, single round, ends assumed
Relative to: no-protein control
Direction: higher = stronger binding
Quantity: RBNS enrichment (R)
All sequences stand within: GGGAGUUCUACAGUCCGACGAUC … UGGAAUUCUCGGGUGCCAA
Target sequence (chain): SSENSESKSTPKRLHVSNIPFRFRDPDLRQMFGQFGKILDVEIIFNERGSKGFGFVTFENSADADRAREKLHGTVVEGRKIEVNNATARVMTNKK
Sequence = UAGAACUGUCAAAUUCAUCUCCCUGAAUUUGUCUUAAAGGGGUGUCCAUGCACAGGCCCAAGAGUCACCUCCAAUGAAAUAAAUGUAAUACUGAAGUAUGCCAUGAUGUU; result = 0.839
Sequence = AACAGACAGCCUUCUGACCCCUGUGCGUCUGCCACGUGCUGGGUGUGCCUUACUCAUAGGGCUCAGGCUCCUGGCCUCUGGCUUCCUGCUUCUGGAUUCUCACCUUCACA; result = 0.305
Sequence = CUCUGGCCCUUGGACUAUGGAAACGUGGGAGGGGCAGGGGAGAUGUGGGGAAGUCCAGGACUCCAGGAGGUGAAAAGGAAAAAAAAAAAAAAAUGUACCUGAUUGCUCCC; result = 0.34
Sequence = UAAUAUAUUAGAAAUCUACAGAUCUGUUUUGUACUUUUUAUACUGUUGGAUACUUAUAAUCAAAACUUUUACUAGGGUAUUGAAUAAAUCUAGUCUUACUAGAAAAUAAA; result = 0.584
Sequence = GGGAGUCUCUCUUAGCCCUUUCAGGAAUUUCUGUUCAGGCUUCCUCCUCCUCAUCAGCUAUUUUACCCAUCUCAGAACGUCCUGUGUCUCCAUGUAGGAGAGUGGCUCUC; result = 0.938
Sequence = CGUGAUGUUCUAGAGUUGUAUGUGUCUGGGUUCUUCCUAUGAGAUCUAAGGGGACGUUAUAAGUGAGCAGAAUAUCAGAAGACCAUGAAUAUGGCAAUUCAUAGUUGAGC; result = 1.33
Sequence = UAGAAUUUCUGGGUGGAGACCCAACUACAAUGACAUUGUCAUGCCAGAACUAUAAAGAUAAUUAGAGUUAAAAGUUGUUUAAAUUGUGCCCUUAAAUACAGCAGAACCUG; result = 0.439
Sequence = UGAAGCAUUGUGGGUACUACCCGUGUCCCAUGUUCACAGUAACAAAUUCACAUGCAGGAUUUACUUUAUACUGUAGAAUACUGACUUUCAUGAUGACAACUUGAUUUAUG; result = 0.379
Sequence = UCAAACCCUAUGUUUCUUUCAGAUGAAUCUUCCAAAGUGGAUUAUAUUAAGCAGGUAUUAGAUUUAGGAAAACCUUUCCAUUUCUUAAAGUAUUAUCAAGUGUCAAGAUC; result = 0.591
Sequence = GGCAGUCUCUCACAUCACAGAUGUGGAAAGUAUAAUUUUAUAUUUGUAUUUUCAAAUAAAUAAGUUUGUGAAAGGUUUCCAUCCUCUACUGUGGUCCAGAAAUCAAUGUG; result = 0.525
Sequence = UGGUAGCUUUUCUGGACUGUGUGCAGCAGUUCAAAGAAGAGGUGGAAAAAGGAGAGACUCGAUUUUGUCUUCCGUACAGGAUGGACGUGGAGAAAGGCAAGAUUGAAGAC; result = 0.502
Sequence = AUUGUUUUCUGUCCAAACUUCUUAUGACUUUAGUUUUUCAUCAGUCAAUAAAAUUAAUUUACUCUUCAAGAAUCUGUGUGAUCUUCACUGUCUCCUGAGCAAUGUGGCAC; result = 0.565

Sample 4
Target: Interferon regulatory factor 7, full length, phosphomimetic (IRF7, Homo sapiens, UniProt Q92985, residues 1-503, S101K/S471D/S472D/S475D/S476D/S477D/S483D/S484D/S487D)
Sequence of UniProt Q92985 (whole entry, unmodified, looked up): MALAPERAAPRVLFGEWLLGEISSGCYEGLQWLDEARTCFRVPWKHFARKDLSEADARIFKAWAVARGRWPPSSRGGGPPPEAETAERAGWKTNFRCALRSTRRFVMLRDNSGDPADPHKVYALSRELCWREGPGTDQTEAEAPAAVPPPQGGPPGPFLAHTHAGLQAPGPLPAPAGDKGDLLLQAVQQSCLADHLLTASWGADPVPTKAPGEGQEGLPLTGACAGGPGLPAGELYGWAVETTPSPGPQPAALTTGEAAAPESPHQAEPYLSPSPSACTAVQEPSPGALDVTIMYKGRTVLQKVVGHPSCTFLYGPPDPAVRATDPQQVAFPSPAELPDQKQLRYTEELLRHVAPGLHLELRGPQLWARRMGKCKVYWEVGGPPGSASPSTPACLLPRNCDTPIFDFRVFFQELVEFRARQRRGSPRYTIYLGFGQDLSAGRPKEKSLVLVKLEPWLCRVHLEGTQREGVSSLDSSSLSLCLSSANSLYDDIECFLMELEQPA
Method: protein-binding microarray
Molecule type: double-stranded DNA, one strand shown
Matrix: in vitro
Concentration: 250 nM
Setting: 60-bp whole probe
Added: salmon DNA 0.4 mg/ml
Relative to: random background probes
Direction: higher = stronger binding
Quantity: log fluorescence
All sequences stand within: GCCTAGCAC … GTCTTGATTCGCTTGACGCTGCTG
Sequence = TCACTTTACACACATCATACTGTGCTA; result = 1.39 z-score
Sequence = TTAGGTCTGCTTTTCCTTTAGTGCTAG; result = 1.1 z-score
Sequence = GACGGTATCAGACTGGGGACGTGCTAG; result = -0.24 z-score
Sequence = TACTTTCTGAATGCTCCCCCTGTGCTA; result = 2.1 z-score
Sequence = TTAGAGCTCAGTATCGATTAGTGCTAG; result = 0.0431 z-score
Sequence = GCCGGACTGGGGACTGGGGACGTGCTA; result = -0.757 z-score
Sequence = TAGAGTAGCTTTCTGAGGGCGTGCTAG; result = -0.814 z-score
Sequence = GACGGTTTCCTTCTCCTGGCGTGCTAG; result = 2.74 z-score
Sequence = TTTGCTTTCCTTTATGTACTGTGCTAG; result = 1.13 z-score
Sequence = TCATGCTTCTGTATTCAACTGTGCTAG; result = -0.0971 z-score
Sequence = GTAGGTCTCCTTTTCCTTTAGTGCTAG; result = 1.09 z-score
Sequence = AACGGACTGCTTCTCCTGACGTGCTAG; result = -0.329 z-score
Sequence = TTAGAACTGAGTTTCGATCAGTGCTAG; result = 3.25 z-score
Sequence = TCATGGTTGAACATGAAACTGTGCTAG; result = 0.118 z-score
Sequence = TTCGATATCGGGTTTCGATTAGTGCTA; result = 7.16 z-score
Sequence = GACGGTATCGGTCTCGGGGCGTGCTAG; result = 0.359 z-score

Some of these lines once more (sample 3):
Sequence = UAGAACUGUCAAAUUCAUCUCCCUGAAUUUGUCUUAAAGGGGUGUCCAUGCACAGGCCCAAGAGUCACCUCCAAUGAAAUAAAUGUAAUACUGAAGUAUGCCAUGAUGUU; result = 0.839
Sequence = AACAGACAGCCUUCUGACCCCUGUGCGUCUGCCACGUGCUGGGUGUGCCUUACUCAUAGGGCUCAGGCUCCUGGCCUCUGGCUUCCUGCUUCUGGAUUCUCACCUUCACA; result = 0.305
Sequence = CUCUGGCCCUUGGACUAUGGAAACGUGGGAGGGGCAGGGGAGAUGUGGGGAAGUCCAGGACUCCAGGAGGUGAAAAGGAAAAAAAAAAAAAAAUGUACCUGAUUGCUCCC; result = 0.34
Sequence = UAAUAUAUUAGAAAUCUACAGAUCUGUUUUGUACUUUUUAUACUGUUGGAUACUUAUAAUCAAAACUUUUACUAGGGUAUUGAAUAAAUCUAGUCUUACUAGAAAAUAAA; result = 0.584
Sequence = GGGAGUCUCUCUUAGCCCUUUCAGGAAUUUCUGUUCAGGCUUCCUCCUCCUCAUCAGCUAUUUUACCCAUCUCAGAACGUCCUGUGUCUCCAUGUAGGAGAGUGGCUCUC; result = 0.938
Sequence = CGUGAUGUUCUAGAGUUGUAUGUGUCUGGGUUCUUCCUAUGAGAUCUAAGGGGACGUUAUAAGUGAGCAGAAUAUCAGAAGACCAUGAAUAUGGCAAUUCAUAGUUGAGC; result = 1.33
Sequence = UAGAAUUUCUGGGUGGAGACCCAACUACAAUGACAUUGUCAUGCCAGAACUAUAAAGAUAAUUAGAGUUAAAAGUUGUUUAAAUUGUGCCCUUAAAUACAGCAGAACCUG; result = 0.439
